Published values of several laboratories.
± gives the spread as reported.
UniProt Q92995, sequence (whole entry, looked up): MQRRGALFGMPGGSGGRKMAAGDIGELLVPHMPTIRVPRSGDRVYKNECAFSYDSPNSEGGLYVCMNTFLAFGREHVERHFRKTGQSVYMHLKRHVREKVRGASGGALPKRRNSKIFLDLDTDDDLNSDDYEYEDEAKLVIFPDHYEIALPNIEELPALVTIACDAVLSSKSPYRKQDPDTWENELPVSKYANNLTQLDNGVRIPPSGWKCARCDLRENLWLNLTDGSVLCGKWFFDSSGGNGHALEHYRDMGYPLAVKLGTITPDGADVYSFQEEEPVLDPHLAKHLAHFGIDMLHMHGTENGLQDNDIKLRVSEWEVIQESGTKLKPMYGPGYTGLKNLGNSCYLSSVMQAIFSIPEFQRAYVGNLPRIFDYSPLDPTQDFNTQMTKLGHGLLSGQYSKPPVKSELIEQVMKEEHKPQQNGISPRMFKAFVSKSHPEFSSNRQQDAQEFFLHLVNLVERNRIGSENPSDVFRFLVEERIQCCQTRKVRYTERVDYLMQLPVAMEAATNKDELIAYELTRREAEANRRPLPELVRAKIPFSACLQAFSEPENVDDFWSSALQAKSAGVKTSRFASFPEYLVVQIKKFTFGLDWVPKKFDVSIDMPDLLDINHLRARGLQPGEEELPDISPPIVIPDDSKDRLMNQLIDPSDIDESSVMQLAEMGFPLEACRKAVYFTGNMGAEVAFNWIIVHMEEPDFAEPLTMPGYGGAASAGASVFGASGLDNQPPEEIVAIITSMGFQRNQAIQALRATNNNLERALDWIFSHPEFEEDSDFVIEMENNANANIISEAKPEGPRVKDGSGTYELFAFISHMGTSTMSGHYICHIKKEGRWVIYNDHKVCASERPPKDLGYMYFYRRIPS

For `C[C@H]1O[C@@H](O[C@H]2[C@@H](O)C[C@H](O[C@H]3[C@@H](O)C[C@H](O[C@H]4CC[C@@]5(C)[C@H](CC[C@@H]6[C@@H]5C[C@@H](O)[C@]5(C)[C@@H](C7=CC(=O)OC7)CC[C@]65O)C4)O[C@@H]3C)O[C@@H]2C)C[C@H](O)[C@@H]1O`, “subjects with adverse event” read 4.5% (item: any adverse event; healthy men; oral, dose not given, 8 days, treatment-emergent, crossover trial).
For `CN1CCC[C@H](CN2c3ccccc3Sc3ccccc32)C1.Cl`, the AUC(0-t) was 33500 ng·h/mL (ICR mouse female fasted, liver; oral, 16 mg/kg).
`CC[C@H](C)[C@H](NC(=O)CN)C(=O)N[C@@H](CC(C)C)C(=O)N[C@@H](CC(=O)O)C(=O)N[C@@H](C)C(=O)N[C@H](C(=O)N[C@@H](CC(C)C)C(=O)N[C@@H](CC(=O)O)C(=O)N[C@@H](C)C(=O)N[C@H](C(=O)N[C@@H](CCCCN)C(=O)N[C@@H](C)C(=O)N[C@H](C(=O)N[C@@H](C)C(=O)N[C@@H](CCCCN)C(=O)N[C@@H](C)C(=O)N[C@H](C(=O)N[C@@H](CCCCN)C(=O)N[C@@H](C)C(=O)N[C@@H](CCCCN)C(=O)N[C@@H](C)C(=O)NCC(N)=O)[C@@H](C)CC)[C@@H](C)CC)[C@@H](C)CC)[C@@H](C)CC` gave a helical content of 27% (circular dichroism; 10 mM PBS; 100 µM).
For `CNCCOC12CC3(C)CC(C)(CC(Cn4ncc(-c5ccc(N6CCc7cccc(C(=O)Nc8nc9ccccc9s8)c7C6)nc5C(=O)O)c4C)(C3)C1)C2`, “mean arterial pressure change” read -5% (beagle dog, male, anaesthetised; intravenous bolus, 0.03 mg/kg, 45 min; relative to: baseline).
`O=C(O)Cc1cccc2cccnc12` gave a Kd of > 1000 µM (Ubiquitin carboxyl-terminal hydrolase 13, ZnF-UBD domain (USP13, Homo sapiens, UniProt Q92995)).
For `NC1(C(=O)N[C@@H](CCO)c2ccc(Cl)cc2)CCN(c2nc[nH]c3nccc2-3)CC1`, “incidence of Somnolence” read 0% (metastatic CRPC patients; 400 mg b.i.d., grade 3 to 4, treatment-related, with: enzalutamide 160 mg daily).
With `CCOC(=O)N1C[C@@H](c2cc(Cl)cc(Cl)c2)N[C@@H](C(CC)CC)C1` the solubility was < 4 µM (shake-flask, LC-HRMS; aqueous buffer; 16 h, pH 6.8).
Under “treatment-emergent adverse events”, `O=C(Nc1nc2cccc(-c3ccc(CN4CCS(=O)(=O)CC4)cc3)n2n1)C1CC1` is recorded as 45% (item: any adverse event; human rheumatoid arthritis patients; oral, 300 mg once daily, 4 weeks, regardless of relatedness).
`Cn1cc(-c2ccc(-c3cncc(Cl)c3N3CCC4(CCNC4=O)CC3)cc2)cn1` — result for “fold change in expression”: 1.13 (COLO 205; microarray, item: PGF; concentration not given, 2 h, gene set PLGF; relative to: untreated cells).
For `O=C(O)c1cccc(C(=O)O)c1`, “apparent dissolution enthalpy” read 3.87 kcal/mol (betaine/glycerol DES-water; DES mass fraction 0.90).
For `O=C(OC(C(F)(F)F)C(F)(F)F)N1CCN(Cc2cccc(Oc3ccccc3)c2)CC1`, the Ktrans was 0.0045 min⁻¹ (PET blocking study; rhesus monkey, brain FCX; 0.3 mg/kg, compound pretreatment, with: [18F]T-401 tracer).
Under “drug-related adverse events”, `CC(=O)N(C)[C@H]1CCN(C(=O)c2cnc3c(c2)C[C@](C)(c2ccc(F)cc2)N3)C1` is recorded as 25% (healthy male subjects, multiple rising dose; oral, 30 mg once daily).
`C=CC(=O)NC1CCN(c2ncc3ncnc(Nc4ccc(Oc5ccc6c(c5)ncn6C)c(C)c4)c3n2)CC1`: “participants with grade 2 pain” 6.3% (human, male; oral, 240 mg, treatment-emergent adverse event).
`CCc1nc(C(N)=O)c(Nc2ccc(N3CCC(N4CCN(C)CC4)CC3)c(OC)c2)nc1NC1CCOCC1` has a Cmax of 70.5 ng/mL (Japanese patients, plasma; oral, 20 mg, cycle 1 day 28, multiple doses, mean).
With `COc1cccc(-c2n[nH]c(SCc3ccccn3)n2)c1OC` the plasma concentration was 10200 ng/mL (Sprague-Dawley rats, both sexes; oral dietary, 100 mg/kg/day, day 90, 12 h).
For `CCN1/C(=C/C(C)=O)Sc2ccc(F)cc21`, “QTc interval (Bazett)” read 327 ± 8 ms (cynomolgus monkey; oral, 10 mg/kg, 1 h post-dose).
With `O=[N+]([O-])c1ccc(-c2ccc(O)cc2)c2cccnc12` the AUC(0-inf) was 33.5 ng·h/mL (male ICR mouse, plasma; oral, 5 mg/kg).
`O=C(CCCCCCC(=O)Nc1ccc(CC[18F])cc1)NO` has a tissue uptake of 1 ± 0.7 %ID/g (athymic nu/nu male mice, LNCaP xenograft, heart; intravenous, 2 h).
`Cc1nc2cccc(OCC(C)(C)C(=O)NC(C)C)c2c(N)c1C(=O)O` has a Cmax ratio of 1.24 ± 0.84 (Sprague-Dawley rat, female, plasma; oral, 30 mg/kg, day 7 over day 1, 7-day repeated dosing; relative to: day 7 over day 1).
`O=c1[nH]c(=O)n([C@@H]2O[C@H](CO)[C@@H](O)[C@@H]2F)cc1CCC[18F]` has a biodistribution of 0.29 ± 0.14 %ID/g (nude mice, RG2 tumour, muscle; intravenous, dose not given, 2 h).
For `CC1(C)OC[C@H](c2ccc(C(F)(F)F)cc2)N[C@@H]1c1ccc(Cl)c(Cl)c1`, the solubility was < 4 µM (shake-flask, LC-HRMS; aqueous buffer; 16 h, pH 6.8).
For `COc1ccc2c(c1)CN(C(=O)CCN1CCC(Cc3ccccc3)CC1)CC[S@@+]2[O-]`, the QRS duration was 33 ± 11 ms (telemetry; conscious male beagle dogs; intravenous, 4 mg/kg, 1 h).
For `COc1ccc2c(c1)sc(-c1ccc(N(C)C)cc1)[n+]2C`, the Stokes shift was 70 nm (PBS; free dye).
`CCOc1c([C@H](C)n2nc(C)c3c(N)ncnc32)cc(Cl)c(F)c1[C@@H]1CNC(=O)C1`: “patients with HR above 100 bpm” 0% (ECG; previously treated B-cell malignancy patients; oral, 5 mg once daily, baseline below thresholds).
`CCN1CCN(Cc2ccc(NC(=O)c3ccc(C)c(NC(=O)c4cncc(-c5cccs5)c4)c3)cc2C(F)(F)F)CC1` gave a half-life of 2.02 h (C57BL/6 mice, epithelial lining fluid; intraperitoneal, 10 mg/kg).
`O=C(O)CCC(=O)O.[2H]C([2H])([2H])Oc1cc(C)c2[nH]ccc2c1CN1CC[C@@H](C2CC2)C[C@H]1c1ccc(C(=O)O)cc1`: “subjects with elevated LDL TEAE” 0% (multiple ascending dose; healthy Chinese subjects; 50 mg twice daily).
`Cc1cc([C@H]2C[C@H]3[C@@H](CF)SC(N)=N[C@@]3(c3ccc(F)cc3F)CO2)on1` gave a CSF concentration of 16 nM (129/SVE wild-type mouse, male; subcutaneous, 30 mg/kg, 9 h).
`O=c1[nH]c(=O)n([C@@H]2O[C@H](CO)[C@@H](O)[C@@H]2F)cc1CCCCC[18F]` gave a biodistribution of 0.07 ± 0.04 %ID/g (nude mice, RG2 tumour, heart; intravenous, dose not given, 2 h).
With `CCOC(=O)N1C[C@@H](c2ccc(O)cc2)N[C@@H](C(C)C)C1` the solubility was > 750 µM (shake-flask, LC-HRMS; aqueous buffer; 16 h, pH 6.8).
`COc1nc(-c2cc(C)c(N[C@@H](C)c3cc(F)cc(F)c3)nn2)ccc1-n1cnc(C)c1` gave an MRT(0-t) of 5.98 h (cynomolgus monkey, male, plasma; oral, 2 mg/kg).
For `C[C@H](CCC(=O)NCCS(=O)(=O)O)[C@H]1CC[C@H]2[C@@H]3CC[C@@H]4C[C@H](O)CC[C@]4(C)[C@H]3C[C@H](O)[C@]12C`, the Cmin was 5.18 ± 1.58 nM (human, plasma; endogenous baseline diurnal).
Under “median ACTH level”, `N#Cc1ccc2c(c1)[C@H]1CCCN(C(=O)c3ccc4[nH]cnc4c3)[C@H]1C2` is recorded as 6.8 pmol/L (human; 240 mg, day 15).
`CC1(C)CCC(CN2CCN(c3ccc(C(=O)NS(=O)(=O)c4ccc(NCC5CCOCC5)c([N+](=O)[O-])c4)c(Oc4cnc5[nH]ccc5c4)c3)CC2)=C(c2ccc(Cl)cc2)C1` — result for “lowest mean absolute neutrophil count”: 1600 ± 1300 cells/µL (chronic lymphocytic leukaemia patients; dose not given, during treatment).
The MRT(0-inf) of `CSc1ccccc1C(=O)NCCn1cc(C(=O)NCc2cccc(C)n2)c(=O)c2cc3c(cc21)OC(F)(F)O3` is reported as 0.41 ± 0.02 h (Sprague-Dawley rat, male, whole blood; intravenous, 5 mg/kg of parent compound).
`COC(=O)c1ccc([C@H]2COC(C)(C)[C@@H](c3ccc(Cl)c(Cl)c3)N2)cc1` has a solubility of < 4 µM (shake-flask, LC-HRMS; aqueous buffer; 16 h, pH 6.8).
`COc1cc2nccc(Oc3ccc(NC(=O)c4cc5c(n(-c6ccccc6)c4=O)CCCC5=O)nc3)c2cc1OC`: “drug-related TEAEs leading to discontinuation” 0% (patients with relapsed/refractory AML; oral, 3 mg once daily).
`Cc1cnc(N2CC3(CCOCC3)C2)c(C(=O)Nc2ccc(C(=O)N3CCc4cc(C(=O)Nc5c(C)cccc5F)sc4-c4ccccc43)cc2)c1`: “cardiovascular and respiratory effects” “no effect” (safety pharmacology; dog; concentration not given).
For `CC(C)NCCCC[C@@H]1NC(=O)[C@H](Cc2ccc(O)cc2)NC(=O)[C@H](Cc2ccccc2)NC(=O)CC[C@H](C(=O)N[C@@H](CCCCNC(C)C)C(=O)N[C@@H](CCCCNC(=O)[C@H](CCC(=O)O)NC(=O)[C@H](CCC(=O)O)NC(=O)[C@H](CCC(=O)O)NC(=O)CN2CCN(CC(=O)O)CCN(CC(=O)O)CCN(CC(=O)O)CC2)C(N)=O)NC(=O)CNC(=O)[C@H](Cc2ccc3ccccc3c2)NC(=O)[C@@H](CCCNC(=N)N)NC1=O` [gallium-68 labelled], the tissue uptake was 0.3 %ID/g (mouse with PC-3 xenograft, intestine; intravenous, 1 h).
For `Cc1ccc([C@@H]2O[C@H](CO)[C@@H](O)[C@H](O)[C@H]2O)cc1Cc1ccc(-c2ccc(F)cc2)s1`, “urinary magnesium excretion change” read -11.9 mg (Japanese type 2 diabetes patients; 25 mg, day 3, 24 h urine collection; relative to: baseline).
With `CCc1cc(C(=O)NC)c2nccc(N3CCc4c(cc(Cn5ccnc5)cc4-c4cn(C)nc4C(F)(F)F)C3=O)c2c1` the MRT(0-inf) was 1.9 h (Sprague-Dawley rats, male, plasma; oral, 50 mg/kg).
`O=c1[nH]c(=O)n([C@H]2C[C@H](O)[C@@H](CO)O2)cc1CCC[18F]` has a biodistribution of 0.49 ± 0.19 %ID/g (male CD-1 nu/nu mice, RG2 tumour, muscle; intravenous, dose not given, 2 h).
For `COc1ccc([C@@H](O)c2cc(-c3ncnc4cc(N5CCOCC5)ccc34)c(F)cc2Cl)nn1`, “rectal tenesmus TEAE” read 83% (locally advanced rectal cancer; oral, 250 mg, with: capecitabine and radiotherapy).
For `Cc1ccc(Sc2ccccc2N2CCNCC2)c(C)c1`, “participants with TEAE” read 16.7% (item: Nausea; healthy adult women; oral, 5 mg daily, 12 days).
`C=CC(=O)N(C)CCOc1c(N)ncnc1-c1cc(F)cc(NC(=O)c2ccc(C3CC3)cc2F)c1C` has an AUC of 44.9 ng·h/mL (human, whole blood; oral, 25 mg once daily, day 1).
For `Cn1cc(Nc2nc(N)nc(-c3cccc(-n4ccc5cc(C6CC6)cc(F)c5c4=O)c3CO)n2)cn1`, “drug-related vomiting subjects” read 0% (healthy subjects; oral, 300 mg tablet, fed high-fat breakfast).
For `C=CC(=O)N1CCC(c2ccc(C(N)=O)c(-c3ccc(Oc4ccccc4)cc3)n2)CC1`, “incidence of grade ≥3 TEAEs” read 12.5% (CTCAE 4.03; patients with relapsed/refractory MCL; oral, 100 mg twice daily).
`CCOC(=O)N1C[C@@H](c2cnc(-c3ccccc3)nc2)N[C@@H](c2ccc(-c3ccccc3)cc2)C1` gave a solubility of < 4 µM (shake-flask, LC-HRMS; aqueous buffer; 16 h, pH 6.8).

A few entries again:
Under “treatment-emergent adverse events”, `O=C(Nc1nc2cccc(-c3ccc(CN4CCS(=O)(=O)CC4)cc3)n2n1)C1CC1` is recorded as 45% (item: any adverse event; human rheumatoid arthritis patients; oral, 300 mg once daily, 4 weeks, regardless of relatedness).
For `O=C(OC(C(F)(F)F)C(F)(F)F)N1CCN(Cc2cccc(Oc3ccccc3)c2)CC1`, the Ktrans was 0.0045 min⁻¹ (PET blocking study; rhesus monkey, brain FCX; 0.3 mg/kg, compound pretreatment, with: [18F]T-401 tracer).
For `COc1ccc2c(c1)sc(-c1ccc(N(C)C)cc1)[n+]2C`, the Stokes shift was 70 nm (PBS; free dye).
For `COc1ccc2c(c1)CN(C(=O)CCN1CCC(Cc3ccccc3)CC1)CC[S@@+]2[O-]`, the QRS duration was 33 ± 11 ms (telemetry; conscious male beagle dogs; intravenous, 4 mg/kg, 1 h).
